Published values gathered from unrelated publications.
Numbered parts are unrelated; each lists some results of a single study. Positions count from the first letter of the parent shown.

Set 1 — method: RNAcompete; form: RNA; matrix: in vitro; concentration: 20 nM; notes: 7-mer, probes averaged, single round; reference: mean of 7-mers; reading: higher = stronger binding
Target: PABPC1L2, full length, GST fusion (mouse, UniProt A0ABA7IW68)
Construct (chain): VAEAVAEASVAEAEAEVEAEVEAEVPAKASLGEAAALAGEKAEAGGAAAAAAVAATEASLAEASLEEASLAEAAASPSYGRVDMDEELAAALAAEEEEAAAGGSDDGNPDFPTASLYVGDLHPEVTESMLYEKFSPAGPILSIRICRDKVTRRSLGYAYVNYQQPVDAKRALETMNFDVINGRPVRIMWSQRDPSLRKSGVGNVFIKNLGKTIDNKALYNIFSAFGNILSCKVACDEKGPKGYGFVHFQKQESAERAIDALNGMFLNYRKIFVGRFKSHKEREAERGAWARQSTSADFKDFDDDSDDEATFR
`UGGUGAC` gave a 7-mer Z-score of -0.0264.
`GCUGCUU` gave a 7-mer Z-score of -0.316.
The 7-mer Z-score of `UGCAUGU` is reported as -0.142.
For `GUUCGUU`, the 7-mer Z-score was -0.47.
With `GGCCCAC` the 7-mer Z-score was -0.22.
For `UAUUCAU`, the 7-mer Z-score was -0.24.
`GUCUUGA` gave a 7-mer Z-score of -0.378.
The 7-mer Z-score of `UGGGCCC` is reported as -0.191.

Set 2 — method: RNA Bind-n-Seq; form: RNA; matrix: in vitro; concentration: 20 nM; notes: 6-mer, flanks averaged, single round; together with: 150 mM KCl; reference: input library; reading: higher = stronger binding
Target: TAR DNA-binding protein 43, full length, His tag (TARDBP, Homo sapiens, UniProt Q13148, residues 1-414)
For `GUCGUU`, “6-mer enrichment (R)” read 0.716.
For `AGGUUG`, “6-mer enrichment (R)” read 1.22.
Under “6-mer enrichment (R)”, `CCAGCA` is recorded as 0.719.
For `GAUGGC`, “6-mer enrichment (R)” read 1.38.
Under “6-mer enrichment (R)”, `UACGCU` is recorded as 0.599.
Under “6-mer enrichment (R)”, `UGUGUA` is recorded as 1.11.
`CCGUUA` — result for “6-mer enrichment (R)”: 0.577.
Under “6-mer enrichment (R)”, `UCAGCU` is recorded as 0.6.

Set 3 — method: RNA Bind-n-Seq; form: RNA; matrix: in vitro; concentration: 1 µM; notes: whole 134-nt RNA, ends assumed; together with: 150 mM KCl; reference: input library; reading: higher = stronger binding
Target: Ras GTPase-activating protein-binding protein 1, C-terminal RGG region (G3BP1, Homo sapiens, UniProt Q13283)
Sequence of UniProt Q13283 (whole entry, looked up): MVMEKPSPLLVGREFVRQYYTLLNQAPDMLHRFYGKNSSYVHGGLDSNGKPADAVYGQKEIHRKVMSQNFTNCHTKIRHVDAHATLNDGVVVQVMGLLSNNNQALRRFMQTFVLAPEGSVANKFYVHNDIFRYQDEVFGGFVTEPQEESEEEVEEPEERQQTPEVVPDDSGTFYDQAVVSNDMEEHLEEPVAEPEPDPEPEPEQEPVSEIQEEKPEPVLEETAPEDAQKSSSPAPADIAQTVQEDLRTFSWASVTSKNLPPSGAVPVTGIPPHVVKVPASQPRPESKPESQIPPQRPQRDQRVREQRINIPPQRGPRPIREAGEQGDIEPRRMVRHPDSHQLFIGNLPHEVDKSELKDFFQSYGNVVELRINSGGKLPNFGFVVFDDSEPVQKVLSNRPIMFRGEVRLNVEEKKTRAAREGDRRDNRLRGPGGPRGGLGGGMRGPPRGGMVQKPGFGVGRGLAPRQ
Shared flanks, not repeated: GGGAGUUCUACAGUCCGACGAUC … UGGAAUUCUCGGGUGUCAAGG
The log2 enrichment of `CCUCAAGUCCUGUGCUACACAUCGUAUGUACCGAAUCGGGGCGGCGGCGGGGAAAGUAUUAUGUUACGCCGUUCGGAUCUGCACUUCCAG` is reported as -1.08.
`UCCUGUGCUACACAUCGUAUGUACCGAAUCGGGUUUUUUGGUUUUUUGGUUUUUUGGGGAAAGUAUUAUGUUACGCCGUUCGGAUCUGCA` gave a log2 enrichment of -1.14.
With `CUCAAGUCCUGUGCUACACAUCGUAUGUACCGAAUCGGUUUGGUUUGGAAAGGAAAGUAUUAUGUUACGCCGUUCGGAUCUGCACUUCCA` the log2 enrichment was -1.12.
For `UCAACAAGAGAUGUUCAAGAACUUUUGACACAAUAUACCAAGUUUGCACAGAUGGUAAAAAAGAUGGGAGGUAUCAAAGGACUUUUCAAA`, the log2 enrichment was -0.962.
`UCCUGUGCUACACAUCGUAUGUACCGAAUCGGCCCCCCGGGCCCCCCGGCCCCCCGGGGAAAGUAUUAUGUUACGCCGUUCGGAUCUGCA` has a log2 enrichment of -1.12.
For `UGGGAGGUGGAUUUUGUUUAUUUUUUUAGCUCAUUUCCAGGGGUGGGAAUUUUUUUUUAAUAUGUGUCAUGAAUAAAGUUGUUUUUAAAA`, the log2 enrichment was 2.17.
With `UUUUAAUUUGUUUGUCUCUCAUGAAACUAUGGUCUUUUAAAAAUUAAAGGUUUUUUUUUUCCCCUUAGACGAAACUGCAAAGGAAAUCCG` the log2 enrichment was -1.2.
The log2 enrichment of `GUCCUGUGCUACACAUCGUAUGUACCGAAUCGGGGAGGGGUUUUUGGGGUUUUUGGGGAAAGUAUUAUGUUACGCCGUUCGGAUCUGCAC` is reported as 1.37.

Other studies, line by line
Parent: viral docking peptide; KGVKRKLFAEDSS; partner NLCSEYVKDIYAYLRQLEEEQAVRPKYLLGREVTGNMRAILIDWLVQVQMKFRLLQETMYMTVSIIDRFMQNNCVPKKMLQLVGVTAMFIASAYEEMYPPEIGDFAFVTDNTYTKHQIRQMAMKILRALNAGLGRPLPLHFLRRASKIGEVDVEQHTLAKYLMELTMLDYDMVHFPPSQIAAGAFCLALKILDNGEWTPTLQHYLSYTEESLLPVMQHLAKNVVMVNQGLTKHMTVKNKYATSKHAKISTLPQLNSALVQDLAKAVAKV
`KGVKRKIFAEDSS [L7I]` — result for “normalised enrichment score”: 0.401 (CCNB1, cyclin fold, Cln2 fusion (human); yeast growth competition, sequencing; yeast; strong parent motif; reference: not given, higher = stronger binding).
